Measured values gathered from unrelated publications.
A part holds a random share of what one study measured. Positions count from the first letter of the parent shown.

Study 1 — target: CCNE2, cyclin fold, Cln2 fusion (human); technique: yeast growth competition, sequencing; sample: yeast; setting: weak parent motif; reference: not given; reading: higher = stronger binding; measurement: normalised enrichment score
Starting sequence: E2F7 docking peptide (human); SSAQRRLEIPSGG; partner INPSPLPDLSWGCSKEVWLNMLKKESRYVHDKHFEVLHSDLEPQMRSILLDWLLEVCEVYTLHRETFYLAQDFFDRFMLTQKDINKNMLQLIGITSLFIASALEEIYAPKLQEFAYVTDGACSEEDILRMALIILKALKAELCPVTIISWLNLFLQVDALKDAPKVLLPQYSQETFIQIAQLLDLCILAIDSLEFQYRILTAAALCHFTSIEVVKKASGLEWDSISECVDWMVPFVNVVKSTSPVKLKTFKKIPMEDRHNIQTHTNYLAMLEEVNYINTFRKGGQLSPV
SSAQRRLEIPAGG [S11A]: -0.132
SSAQARLEIPSGG [R5A]: 0.138
SSAQKRLELPSGG [R5K I9L]: 0.0291
SAAQRRLEIPSGG [S2A]: -0.0138
SSAQKRLEIPSGG [R5K]: -0.315
SSAQRALEIPSGG [R6A]: -0.96
SSAQRRLEIASGG [P10A]: -0.108
ASAQRRLEIPSGG [S1A]: 0.333
SSAQRRLELPSGG [I9L]: 0.451

Study 2 — technique: RNA Bind-n-Seq; molecule type: RNA; sample: in vitro; tested at: 365 nM; reference: no-protein control; reading: higher = stronger binding; measurement: RBNS enrichment (R)
Target: RNA binding protein fox-1 homolog 2, RRM domain, GST-SBP tag (RBFOX2, Homo sapiens, UniProt O43251-10, residues 100-194)
Setting: natural RNA segment, single round, ends assumed
Constant ends, left off below: GGGAGUUCUACAGUCCGACGAUC … UGGAAUUCUCGGGUGCCAA
Target sequence (chain): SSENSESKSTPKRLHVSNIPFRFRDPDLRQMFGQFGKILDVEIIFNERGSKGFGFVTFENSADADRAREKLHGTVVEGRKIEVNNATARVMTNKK
AGAGGUAGCUGUGGUGUUGAAACACUGGACUUGGAUAUGGGGUGCUGGGAUCGAUUCCUAGCUUUACCACUAACUAGCUGUGUGGCCUUGAGUAAAUCCCGUUACCUCUC: 0.308
GGGCAGUACUGUCAGAAAUUUCUUUGAGCUGUGAGAUGGAUUUAUUUUUAAAUGCUACUUUGUAAAGGUGACCUUUAAAAAAUAAAAGGAAAAUAAAGAAUGUUAGUUUC: 2
CUGAAGCCUCUUCUCAGAACACUGUGAAGAUAAUACUGACAGUAGAAUCAGUGAAAACAGCCUAACAAAACCUCUGACAUCAGUAUAUCAACUUUUAACAGCCCACUCAC: 0.439
GGACUCAGCAGGCUGGAGCUUGGGGCCUGGUGGACCAUCACCUGGUGUCUGUAGGUGGACCCGGUCUCCCACAGGUGACAUCAACCUGAGGGUGGCGUCUUUAGAGACAG: 0.579
GCUCCCGCUUCCACCCCCACUGUCCAUCCUGACCUUUCCUUGCCCCACUUUCAGAGUCGAAUCAGCUCUGAGCCUAGGACAGUGCUGGCUCUCUGAGGGCAACCAGGCCU: 0.26
AUGAAAUGACUUGAGGAUUCCAAUUUCUUAUUAGCUUAAGAUGUCACUUAAAAGCUGACAGCCCUCAUCUGUCUCAUUGGCUACAUAAGAGCUGCAGAAGAUCCAUCAAU: 0.372
UCUGCAGGGCAUAUUAAGAUCAUCCCAGAGGUUCAGGCAGUUCCUGUCAUCUCUGAAAAGACUGGGGGAUAUGAAAUCUUCCCCCUACCCCACUUAAUGCGUUGGAUAUG: 0.319
AAACAGUUCUUACUCCUGUGUUUUAGCAAAAAUUUAUCAAACAAAAUAAAUGGUACUUAUGUUUUCUAAGUCCUUCUACUGGUGUGUCUUUUUCCACGUAAUGGUAGAAA: 0.909
UAAACAUAUGUAUUGUUAAUUAUAAAUAUCGAUAAGUAAUAGCAUAAUAGAUGAAGAGGUCUUAUUCAGAUGCUUCAUGUCCAUUUUACAUUACCCAUCUACUGUCGCAU: 0.289
AUAACUAAGCCUGUAAUUGGGCUGGUUUCUCUUACACCCUAGCACAGUUAAAAAAUGAAGUACUGUUUAACAUUUGCUCCCGAAAUAUUUCUUACUGUGUAAAAGAAGCU: 0.575
CAUUGGCUGUGCCCAAAUGAGUCCUCUUUGAAUAGAAAGUGAACCCAGGGCAAUGACAGCCAUUCUUGUCUUAGGGAUUAUGGAUCGGGGUAUGAAGUGUGCACACGCAG: 0.479
UCUUCAUUAGAGUAAACAGUGGGACUUGGGAGGAUUAGUCUGGUGUCUAUUCUGGGCUAGAGAGAUCAUUUGACGAAAAAAAACUUACACUAUUUGAUGUACAGAAUAGA: 0.547

Study 3 — technique: RNA Bind-n-Seq; molecule type: RNA; sample: in vitro; tested at: 200 nM; setting: whole 134-nt RNA, ends assumed; together with: 150 mM LiCl; reference: input library; reading: higher = stronger binding; measurement: log2 enrichment; each molecule: 7-deaza-guanosine replaces G
Target: Fragile X messenger ribonucleoprotein 1, C-terminal low-complexity region (Fmr1, Mus musculus, UniProt P35922)
Constant ends, left off below: GGGAGUUCUACAGUCCGACGAUC … UGGAAUUCUCGGGUGUCAAGG
UCAAGUCCUGUGCUACACAUCGUAUGUACCGAAUCGGGGUGGGGAGGGGAGGGGAAAGUAUUAUGUUACGCCGUUCGGAUCUGCACUUCC: -0.227
ACCAUGCAGGUGGGCAUCUUUGGGAAGUGGGGCAAGGGGGGGAUAGGGAGGGGGGUAACAGUUUGGGAACAGGUGGUCCCAGGUCGUUUC: 1.49
UAACUUUAGAGGAGGAUCUGAUGGAUAUGGCAGUGGACGUGGAUUUGGGUAUGGCUAUAAUGGGUAUGGAGGAGGACCUGGAGGUGGCAA: -0.131
UGGCCCUGGUGGCAUGCGGGGAGGAAGAGUUGGCCUCAUGGAUCGUGGUGGUCCCGGUGGAAUGUUCAGAGGUGGCCGUGGUGGAGACAG: -0.238
UAUUGAUGCAUUUGACCCUACACUGGCUCCAGCCACAGGAACUCCUGUUGUCGGGGGACUAACCUAUCGAGAAGGCAUGUAUAUUGCUGA: 0.963
AAGUCCUGUGCUACACAUCGUAUGUACCGAAUCGGUUUUUGGAAAGGAAAAAAAGGAAAGUAUUAUGUUACGCCGUUCGGAUCUGCACUU: -2
AAGUCCUGUGCUACACAUCGUAUGUACCGAAUCGGGAAAGGGAAAGGGUUUUUGGGAAAGUAUUAUGUUACGCCGUUCGGAUCUGCACUU: -1.84
GCAGGAAGUAAAAACAAAUGGAAAUGCUUCGGAAAGUGGCAGGGGUGGGGGUUGCUAAGGAAAGGGUGGGAUGGGAGUGGGUAAAGAGUU: 2.03
CCUGUGCUACACAUCGUAUGUACCGAAUCGGCCCCCCGGGGCCCCCCGGGGCCCCCCGGGAAAGUAUUAUGUUACGCCGUUCGGAUCUGC: -3.37
ACCAUGCAGGUGGGCAUCUUUGGGAAGUGGGGCAAGGGGGGGAUAGGGAGGGGGGUAACACAUUGGGAACAGGUGGUCCCAGGUCGUUUC: 1.39
AAGUCCUGUGCUACACAUCGUAUGUACCGAAUCGGGCCCGGGGCCCGGGCCCGGGGAAAGUAUUAUGUUACGCCGUUCGGAUCUGCACUU: -3.48

Study 4 — technique: protein binding microarray; molecule type: double-stranded DNA, one strand shown; sample: in vitro; tested at: not given; reference: not given; reading: higher = stronger binding; measurement: E-score
Target: Histone acetyltransferase KAT6A, winged helix 1, GST fusion (KAT6A, Homo sapiens, UniProt Q92794, residues 1-85)
Setting: 8-mer, flanks averaged, mean of 2 arrays, mostly near background
Residues (chain): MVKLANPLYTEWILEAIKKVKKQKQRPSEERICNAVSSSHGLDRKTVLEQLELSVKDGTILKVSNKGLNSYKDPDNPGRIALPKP
TGTGAACA: -0.149
CTTCGCAC: 0.0803
CAGGCAAA: -0.187
AATACTAT: -0.0577
AAAAGTAT: 0.014
CGGCAAAG: 0.233
CGGTTACG: 0.368
ATTCCATA: -0.169
CGACGGGC: 0.435
AGAAAACT: -0.248
CGTCTAAA: -0.046
CCGGAGGA: 0.0165
CTCAACGC: 0.153
GTAATATA: 0.0615
AGTCGCAG: -0.0184
AATACAAC: 0.0725
CACTCCAG: -0.0763
GCATAGGC: -0.0715
CCGACGTC: 0.241
GAGCTTGC: -0.0976
TCCACCAA: -0.324
TATGTTGA: 0.0442
CCATCGGG: 0.17
CTAAGAGA: -0.177
AAAAGTAA: -0.0791

Study 5 — technique: protein-binding microarray; molecule type: double-stranded DNA, one strand shown; sample: in vitro; tested at: 250 nM; setting: 60-bp whole probe; together with: salmon DNA 0.4 mg/ml; reference: random background probes; reading: higher = stronger binding; measurement: log fluorescence; constant ends, left off below: GCCTAGCAC … GTCTTGATTCGCTTGACGCTGCTG
Target: Interferon regulatory factor 7, full length, phosphomimetic (IRF7, Homo sapiens, UniProt Q92985, residues 1-503, S101K/S471D/S472D/S475D/S476D/S477D/S483D/S484D/S487D)
Chain of UniProt Q92985 (whole entry, unmodified, looked up): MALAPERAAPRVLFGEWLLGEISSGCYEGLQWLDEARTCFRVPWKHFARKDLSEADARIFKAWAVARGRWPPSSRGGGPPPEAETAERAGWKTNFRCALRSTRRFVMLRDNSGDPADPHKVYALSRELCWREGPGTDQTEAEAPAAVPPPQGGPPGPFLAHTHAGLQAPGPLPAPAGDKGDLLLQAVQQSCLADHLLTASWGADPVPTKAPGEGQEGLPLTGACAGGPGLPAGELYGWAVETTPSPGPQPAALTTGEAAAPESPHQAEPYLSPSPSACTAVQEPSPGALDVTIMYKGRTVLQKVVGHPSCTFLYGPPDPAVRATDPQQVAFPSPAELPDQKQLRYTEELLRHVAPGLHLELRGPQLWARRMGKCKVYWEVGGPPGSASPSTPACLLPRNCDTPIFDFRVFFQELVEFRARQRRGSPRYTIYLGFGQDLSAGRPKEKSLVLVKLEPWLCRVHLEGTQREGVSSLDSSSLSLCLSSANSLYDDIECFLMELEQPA
TCTCTTTCCAACTCTGTTTTCGTGCTA: 2.52 z-score
TTAGATTTCGGGTATCGATGAGTGCTA: 0.699 z-score
TCACCTTTCGGAATACCACTGTGCTAG: 1.47 z-score
GACGGTATCAGACTGGAGACGTGCTAG: -0.24 z-score
GACGATATCAGGCTCGAGACGTGCTAG: 0.175 z-score
ATCCATCTCAAGTAGCCTAGCGTGCTA: -0.133 z-score
TTAGGACTGGGACTGGGTGAGTGCTAG: -0.0586 z-score
TGGGCTGTGGGTTTGAGTCTGTGCTAG: -0.99 z-score
TACTATATGCATGTAAATAAGTGCTAG: 0.32 z-score
GGCGATATCGGGTTTCGAGACGTGCTA: 2.43 z-score
GACGGTTTCGGCTCCGGGACGTGCTAG: 3.29 z-score
TCTATTTTCTGAATGTCTTCGTGCTAG: 2.01 z-score
TTAGATATCGGTCTCGATTAGTGCTAG: 1.91 z-score
GCTTTTATGGTATTTTTTTCGTGCTAG: 1.28 z-score
TTAGGTTTCGACTTTCGTTTAGTGCTA: 11.5 z-score
TCAGAATTAGGTTTCACACTGTGCTAG: 0.823 z-score
CCCATTCTGAATTCGAATGCGTGCTAG: 0.902 z-score

Study 6 — technique: universal PBM; molecule type: double-stranded DNA, one strand shown; sample: in vitro; tested at: 600 nM; reading: higher = stronger binding; measurement: E-score
Target: Sal-like protein 4, full length isoform A (SALL4, Homo sapiens, UniProt Q9UJQ4, residues 1-1053)
Chain of UniProt Q9UJQ4 (whole entry, looked up): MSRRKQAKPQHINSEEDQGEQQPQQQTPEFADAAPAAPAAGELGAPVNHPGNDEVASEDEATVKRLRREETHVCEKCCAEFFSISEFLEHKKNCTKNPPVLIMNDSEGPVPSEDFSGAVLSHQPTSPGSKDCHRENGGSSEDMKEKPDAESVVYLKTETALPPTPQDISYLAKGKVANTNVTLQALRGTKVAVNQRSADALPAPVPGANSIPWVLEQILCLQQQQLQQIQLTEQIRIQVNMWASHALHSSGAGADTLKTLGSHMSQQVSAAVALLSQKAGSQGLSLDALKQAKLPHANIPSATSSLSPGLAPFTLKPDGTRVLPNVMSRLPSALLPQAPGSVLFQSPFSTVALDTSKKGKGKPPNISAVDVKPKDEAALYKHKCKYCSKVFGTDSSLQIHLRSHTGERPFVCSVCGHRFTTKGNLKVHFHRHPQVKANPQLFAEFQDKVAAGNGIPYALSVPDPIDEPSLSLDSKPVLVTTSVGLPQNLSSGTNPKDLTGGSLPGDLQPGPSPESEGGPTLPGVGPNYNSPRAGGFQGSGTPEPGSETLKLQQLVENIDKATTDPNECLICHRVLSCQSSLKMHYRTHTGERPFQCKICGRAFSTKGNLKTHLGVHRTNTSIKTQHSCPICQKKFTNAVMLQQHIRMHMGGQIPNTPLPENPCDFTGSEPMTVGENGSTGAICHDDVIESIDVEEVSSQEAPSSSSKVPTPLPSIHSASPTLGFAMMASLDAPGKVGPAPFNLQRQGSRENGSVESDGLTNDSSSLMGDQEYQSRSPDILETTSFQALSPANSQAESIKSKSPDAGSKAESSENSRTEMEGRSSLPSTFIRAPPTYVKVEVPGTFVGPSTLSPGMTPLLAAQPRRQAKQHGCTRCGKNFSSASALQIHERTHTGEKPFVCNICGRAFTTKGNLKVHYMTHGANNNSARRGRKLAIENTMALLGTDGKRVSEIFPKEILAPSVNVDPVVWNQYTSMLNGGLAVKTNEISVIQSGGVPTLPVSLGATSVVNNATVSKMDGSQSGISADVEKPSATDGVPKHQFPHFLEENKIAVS
Setting: 8-mer, flanks averaged, mean of replicates
AACTGAGA: 0.0973
CCTCTGTC: -0.226
CAGAATTA: 0.167
CGGGTAGA: -0.106
TCTGGCCA: -0.0186
TCATTGCA: 0.0868
CCTGGACA: -0.21
CGAAAGAA: 0.124
GAAATTAA: 0.378
CTGGACAC: -0.264
AAGGTCTA: 0.00764
GTCGGGTA: -0.197
GGGCTCAC: -0.43
AACCCCGT: -0.185
GATTAGAC: 0.101
AACCCCAG: -0.288
GACCGCGA: -0.344
CTTGTATC: 0.161
TAGTGATA: 0.176
ATTCACTG: 0.138

Excerpt of the above (study 3):
UCAAGUCCUGUGCUACACAUCGUAUGUACCGAAUCGGGGUGGGGAGGGGAGGGGAAAGUAUUAUGUUACGCCGUUCGGAUCUGCACUUCC: -0.227
ACCAUGCAGGUGGGCAUCUUUGGGAAGUGGGGCAAGGGGGGGAUAGGGAGGGGGGUAACAGUUUGGGAACAGGUGGUCCCAGGUCGUUUC: 1.49
UAACUUUAGAGGAGGAUCUGAUGGAUAUGGCAGUGGACGUGGAUUUGGGUAUGGCUAUAAUGGGUAUGGAGGAGGACCUGGAGGUGGCAA: -0.131
UGGCCCUGGUGGCAUGCGGGGAGGAAGAGUUGGCCUCAUGGAUCGUGGUGGUCCCGGUGGAAUGUUCAGAGGUGGCCGUGGUGGAGACAG: -0.238
UAUUGAUGCAUUUGACCCUACACUGGCUCCAGCCACAGGAACUCCUGUUGUCGGGGGACUAACCUAUCGAGAAGGCAUGUAUAUUGCUGA: 0.963
AAGUCCUGUGCUACACAUCGUAUGUACCGAAUCGGUUUUUGGAAAGGAAAAAAAGGAAAGUAUUAUGUUACGCCGUUCGGAUCUGCACUU: -2
